Published values gathered from unrelated publications.
Every numbered part comes from another study and shows a few of its results, in no order. Substitutions count along the parent as printed.

Set 1 — target: CCNB1, cyclin fold, Cln2 fusion (human); method: yeast growth competition, sequencing; sample: yeast; notes: weak parent motif; relative to: not given; direction: higher = stronger binding
Starting sequence: CDAN1 docking peptide (human); RGARSQLFPPTEA
For `Q6A`, “normalised enrichment score” read -0.183.
`T11A` — result for “normalised enrichment score”: 9.91e-05.
`G2A`: “normalised enrichment score” 0.15.
`F8A`: “normalised enrichment score” 0.509.
Under “normalised enrichment score”, `P9A` is recorded as 0.46.
For `R4A`, “normalised enrichment score” read 0.126.

Set 2 — method: RNA Bind-n-Seq; molecule type: RNA; sample: in vitro; concentration: 365 nM; relative to: no-protein control; direction: higher = stronger binding
Target: RNA binding protein fox-1 homolog 2, RRM domain, GST-SBP tag (RBFOX2, Homo sapiens, UniProt O43251-10, residues 100-194)
Notes: natural RNA segment, single round, ends assumed
Construct (chain): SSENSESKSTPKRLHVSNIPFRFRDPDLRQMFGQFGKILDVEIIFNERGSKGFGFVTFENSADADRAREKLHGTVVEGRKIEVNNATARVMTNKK
`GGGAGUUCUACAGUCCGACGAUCACCAAGGAAGAAAGAUCGUUCUGAAGUUACCCUCUGUCAUACAUUUGGUCUCUUUGACUUGGUUUCUAUAAAUGUUUUUAAAAUGAAGUAAAGCUCUUCUUUACGAGGGGUGGAAUUCUCGGGUGCCAA` — result for “RBNS enrichment (R)”: 0.659.
`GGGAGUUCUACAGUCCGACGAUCAUGGUCUGGUGCCUAGCUGGGAGUGAGCAGCAGCCCAUCCCCUGUUCACUUUCUCUAGCCCAUCAUUACCUGUGAACUGCAGUGGGGCAGUCAUGGCAAAUAGAAUUGGGUGGAAUUCUCGGGUGCCAA` — result for “RBNS enrichment (R)”: 0.466.
Under “RBNS enrichment (R)”, `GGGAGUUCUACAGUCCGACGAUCCUCUAUUUUGUGAUGACUCUGCUGUGACAUUAGGUUUGAAGCAUUUUUUUUUUCAAGCAGCAGUCCUAGGUAUUAACUGGAGCAUGUGUCAGAGUGUUGUUCCGUUAAUUUGGAAUUCUCGGGUGCCAA` is recorded as 3.07.
`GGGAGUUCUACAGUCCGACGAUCGAACUCAAGAAAAGAUACGGUGGUUGAUUUCCAUUUUUGCUGAAAUAAUUGUUUUUGACUUUCAUAUGUAAAUUUUUUCUACUGAAAGUGUUUUGCUUUUUAAGAAAAUGUGGAAUUCUCGGGUGCCAA` — result for “RBNS enrichment (R)”: 0.545.
Under “RBNS enrichment (R)”, `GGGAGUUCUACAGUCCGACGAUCGAAAUCUUUACCCUUUAGUACCCGAACCAGUCUCAAGGUGUUCUUUGGAAAUAACCAGGGUUAAAGUUUUUAAUUUCUCAGGAAGAGCUCUUCAGCAUGGCAGGACGUGUUGGAAUUCUCGGGUGCCAA` is recorded as 3.22.
For `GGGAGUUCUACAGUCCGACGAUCCUGCAGGGGGGCCCCCACAAUCAUGCCAUUGCUGCAGUAGCUGUGGCCCUAAAGCAGGCCUGCACCCCCAUGUUCCGGGAGUACUCCCUGCAGGUUCUGAAGAAUGCUCGUGGAAUUCUCGGGUGCCAA`, “RBNS enrichment (R)” read 0.223.
Under “RBNS enrichment (R)”, `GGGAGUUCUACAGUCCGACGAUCAAUGGCAGCAACAAUUUUGCCAUUUCUAUUGACUUUCACAUAGGCGCCCCCAAACACACACAACAACAGAGGUUACCCUGUUCUGUCUACUCUACAGUGACUACCUGUGGUGGAAUUCUCGGGUGCCAA` is recorded as 0.308.
`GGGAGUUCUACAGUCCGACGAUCAAAGUGGCCCACACAAGCCGUCUGAUUUGUCCUCCCACAUAAUGGCAGGCACAGGCCAUGGCACUGGAUUAGUUCUCAUGGGGACUGGUAGUACAAAAGGAUGUCUUUAAUGGAAUUCUCGGGUGCCAA` — result for “RBNS enrichment (R)”: 0.348.
`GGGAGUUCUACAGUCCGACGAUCAGCCUGAGAGCUCCAAGGAACAAGCUGUGACAACCAGGAGCCCUGUCUGUGGGUUCGUCUGCCCAGGGCCUGGAGCCCAAGCCCUGUGUUCCUGGGGAAGCUGGGGACUUUGGAAUUCUCGGGUGCCAA`: “RBNS enrichment (R)” 0.491.

Set 3 — method: RNA Bind-n-Seq; molecule type: RNA; sample: in vitro; concentration: not given; relative to: input RNA pool; direction: higher = stronger binding
Target: RING finger protein unkempt homolog, zinc fingers 1-6, GST-SBP tag (UNK, Homo sapiens, UniProt Q9C0B0, residues 30-357)
Sequence of UniProt Q9C0B0 (30-357, looked up): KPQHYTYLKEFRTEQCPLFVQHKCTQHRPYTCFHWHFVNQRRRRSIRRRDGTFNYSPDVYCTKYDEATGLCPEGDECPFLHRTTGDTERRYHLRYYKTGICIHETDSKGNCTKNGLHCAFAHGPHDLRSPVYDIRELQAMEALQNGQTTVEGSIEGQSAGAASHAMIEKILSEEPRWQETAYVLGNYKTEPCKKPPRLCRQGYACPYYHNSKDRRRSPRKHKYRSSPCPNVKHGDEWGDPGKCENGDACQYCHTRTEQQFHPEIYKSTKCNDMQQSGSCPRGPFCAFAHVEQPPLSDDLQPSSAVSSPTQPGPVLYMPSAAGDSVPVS
Notes: RNA with constant flanks, human and mouse sites, ends assumed
`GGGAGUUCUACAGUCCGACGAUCUUCUAAGCAUACCUUUGGAAUUUUUCCAUCUUUUUUGAGGCUUUUGGUCCAGUGAAGUUCUAAGUAUUCACUGGCACUUCUCUCCUCAACUGUAAUUCUAUUUUUAAUAAUAAAAAUGGCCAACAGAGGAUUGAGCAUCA` gave a bound/input enrichment of 0.364 ratio.
With `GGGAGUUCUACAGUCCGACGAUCAGUCUUCUAUUUUUAAUAGGAACUUAGAAAAAACUUAGAAUUAUAUAUAGAGUUGUUUCCUUUAGAAACCAGAGCUAUUUAUUUGUAUUUAAAGCACUGUUUAUUAUUUGUACUGAUUCUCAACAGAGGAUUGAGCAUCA` the bound/input enrichment was 98.5 ratio.
The bound/input enrichment of `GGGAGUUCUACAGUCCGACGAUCGUGCUGCAGGCCUUGCGCCUCCAACCAGGACUUUCUUCUUAAUGCUCUCGACACUUAGCUAAACACGACUAUAUCCCGGCCCAGCAGGCCCCAGCGCCGUUAGUCUCCAGCUGACUCUGUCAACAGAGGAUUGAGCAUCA` is reported as 0.276 ratio.
`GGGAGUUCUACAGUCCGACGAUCGCAUUUGUAGAAGGAGUGGUUAAGAAAGUAGCUCAAUACAUGGCUGAUGUAUUGGAAGAUAGCAAAGACAAAGUUCAAGAGAAUCUGUUGGCUAAUGGAGUGGACUUGGUUACUUAUAUACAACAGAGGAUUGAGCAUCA` gave a bound/input enrichment of 1.24 ratio.
`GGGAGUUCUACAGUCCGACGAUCGUCCCAAACAUUUCUGUACAUCUGCUACAUGAACCCCCUGCACUGACUAAUGAAAUGUAUUGUUUGGUUGUGACUGUUCAGUCCCAUGAAAAGACCCAAAUCAGAGAUGUGAAGCUCACCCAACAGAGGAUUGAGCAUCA` has a bound/input enrichment of 0.669 ratio.
`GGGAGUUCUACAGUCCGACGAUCAAGGAACUGGAAGUACCUCAUUUUCACCAUGAGCUUGUAUAUGAAGCUAUUAUAAUGGUUUUAGAGUCAACUGGAGAAAGUACAUUUAAGAUGAUUUUGGAUUUAUUAAAGUCCCUUUGGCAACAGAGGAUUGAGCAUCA` has a bound/input enrichment of 0.365 ratio.
For `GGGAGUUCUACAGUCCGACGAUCGCUCUGCCCCCAAACCUCACGAGUGAGCCCAUUCCUGCUGGGGGCUGUACUUUCAGUGGUAUUUUCCCAACAUUAACCUCUCCACUUUAACCUCUUCUAAAAUACCCAACCAAAAGAUCACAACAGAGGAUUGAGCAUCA`, the bound/input enrichment was 0.421 ratio.
`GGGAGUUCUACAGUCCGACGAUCAAGGAUGCAAGGUCCGAUUCCUGGCAGCUCGUGCAGACCCAGUGCCUACCUUCCUCUUCCAAUAGCAUUGGCUGCUCCCCGUUCCAGUUCCAUGAAGCCACCAUUUAUAAUGCUGUCAACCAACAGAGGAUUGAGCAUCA` has a bound/input enrichment of 0.148 ratio.
`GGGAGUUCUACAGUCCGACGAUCGUACUUUUAUCAAGGUUUCUCAAAACAUUUACAAAACCAGCUUUGAGAAAAUGUUAUGUUGCCUGGCAACAGCACUCGGAGUAGUAAUUGUGUUUUCUCAUUGUGAUGUUGGUCUGUGUGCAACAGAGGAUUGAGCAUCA` gave a bound/input enrichment of 0.528 ratio.
`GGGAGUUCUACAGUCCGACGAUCCCUGCUCAGAUCACCAUGAAAGUAAUCCAAGGCCUAUAUAGUGGGGUCACCACAGUGGAACUGGACACCCUGGCUGCUGAGACAGCCGCGACCUUGACCACGAAGCACCCUGACUAUGCCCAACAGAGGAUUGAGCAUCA` has a bound/input enrichment of 0.14 ratio.
`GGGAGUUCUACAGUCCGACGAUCGGAUCCUUCACAGUGAGGACUGACACAGGUGAACCAAUGGGUCGUGGAACAAAGGUUAUCUUGCAUCUGAAAGAAGACCAAACAGAGUAUUUGGAGGAAAGGAGAAUAAAGGAGAUCGUGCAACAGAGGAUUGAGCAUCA` gave a bound/input enrichment of 0.382 ratio.

Set 4 — method: RNA Bind-n-Seq; molecule type: RNA; sample: in vitro; concentration: 200 nM; notes: whole 134-nt RNA, ends assumed; together with: 150 mM LiCl; relative to: input library; direction: higher = stronger binding; each molecule: 7-deaza-guanosine replaces G
Target: Ras GTPase-activating protein-binding protein 1, full length (G3BP1, Homo sapiens, UniProt Q13283)
Sequence of UniProt Q13283 (whole entry, looked up): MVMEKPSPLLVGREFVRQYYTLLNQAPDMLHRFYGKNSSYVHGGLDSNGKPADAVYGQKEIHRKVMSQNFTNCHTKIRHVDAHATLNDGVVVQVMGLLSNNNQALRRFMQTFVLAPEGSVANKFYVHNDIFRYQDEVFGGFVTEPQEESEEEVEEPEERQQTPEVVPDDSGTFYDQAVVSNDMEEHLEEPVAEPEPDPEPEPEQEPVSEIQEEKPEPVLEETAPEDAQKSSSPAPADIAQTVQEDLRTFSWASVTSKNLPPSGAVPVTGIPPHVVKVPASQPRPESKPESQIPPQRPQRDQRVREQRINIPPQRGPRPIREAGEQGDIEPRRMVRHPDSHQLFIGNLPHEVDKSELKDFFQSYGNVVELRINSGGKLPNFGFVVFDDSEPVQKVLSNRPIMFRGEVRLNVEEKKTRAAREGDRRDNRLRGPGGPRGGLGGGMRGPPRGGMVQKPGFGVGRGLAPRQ
The log2 enrichment of `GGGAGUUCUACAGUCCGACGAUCAAGUCCUGUGCUACACAUCGUAUGUACCGAAUCGGAAAGGAAAAAAAGGUUUUUGGAAAGUAUUAUGUUACGCCGUUCGGAUCUGCACUUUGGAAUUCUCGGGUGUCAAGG` is reported as -1.75.
`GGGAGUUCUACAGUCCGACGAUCUCAAGUCCUGUGCUACACAUCGUAUGUACCGAAUCGGCCGGGGCCGGGCCGGGGAAAGUAUUAUGUUACGCCGUUCGGAUCUGCACUUCCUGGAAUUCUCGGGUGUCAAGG` has a log2 enrichment of 0.133.
`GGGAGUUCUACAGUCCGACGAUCAGUCCUGUGCUACACAUCGUAUGUACCGAAUCGGGGCCCCGGCCCCGGGGCCCCGGGAAAGUAUUAUGUUACGCCGUUCGGAUCUGCACUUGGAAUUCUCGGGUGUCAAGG` gave a log2 enrichment of -2.48.
The log2 enrichment of `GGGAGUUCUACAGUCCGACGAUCAGUCCUGUGCUACACAUCGUAUGUACCGAAUCGGGGAAAGGGGAAAGGGGUUUGGGGAAAGUAUUAUGUUACGCCGUUCGGAUCUGCACUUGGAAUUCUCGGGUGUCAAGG` is reported as -0.856.
With `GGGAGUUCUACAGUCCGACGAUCCCUGUGCUACACAUCGUAUGUACCGAAUCGGCCCCCCGGGGCCCCCCGGGGCCCCCCGGGAAAGUAUUAUGUUACGCCGUUCGGAUCUGCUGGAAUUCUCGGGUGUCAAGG` the log2 enrichment was -2.68.
For `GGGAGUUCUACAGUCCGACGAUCGCAGGAAGUAAAAACAAAUGGAAAUGCUUCGGAUAGUGGCAAAAGUGGGGGUUGCUAAGGAAAGGGUGGGAUGGGAGUGGGUAAAGAGUUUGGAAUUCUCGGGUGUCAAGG`, the log2 enrichment was 0.292.
The log2 enrichment of `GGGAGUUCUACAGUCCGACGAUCUCCUGUGCUACACAUCGUAUGUACCGAAUCGGCCCCCCGGGCCCCCCGGGCCCCCCGGGGAAAGUAUUAUGUUACGCCGUUCGGAUCUGCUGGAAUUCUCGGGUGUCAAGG` is reported as -1.57.
The log2 enrichment of `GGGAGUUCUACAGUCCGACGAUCGUCCUGUGCUACACAUCGUAUGUACCGAAUCGGGCCCCCCGGGCCCCCCGGCCCCCCGGAAAGUAUUAUGUUACGCCGUUCGGAUCUGCAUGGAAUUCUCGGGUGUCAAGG` is reported as -0.35.
The log2 enrichment of `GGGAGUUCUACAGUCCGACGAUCCAAGUCCUGUGCUACACAUCGUAUGUACCGAAUCGGCCCGGGGCCCGGGCCCGGGGAAAGUAUUAUGUUACGCCGUUCGGAUCUGCACUUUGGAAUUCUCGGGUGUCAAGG` is reported as -1.08.
With `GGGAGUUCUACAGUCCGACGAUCUAACUUUAGAGGAGGAUCUGAUGGAUAUGGCAGUGGACGUGGAUUUGGGGAUGGCUAUAAUGGGUAUGGAGGACGACCUGGAGGUGGCAAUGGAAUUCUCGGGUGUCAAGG` the log2 enrichment was -0.409.
`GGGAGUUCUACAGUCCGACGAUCCCUCAAGUCCUGUGCUACACAUCGUAUGUACCGAAUCGGCCGGCCGGCCGGGGAAAGUAUUAUGUUACGCCGUUCGGAUCUGCACUUCCAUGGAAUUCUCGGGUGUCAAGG` gave a log2 enrichment of 0.288.

Excerpt of the above (set 4):
For `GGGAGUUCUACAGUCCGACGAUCGCAGGAAGUAAAAACAAAUGGAAAUGCUUCGGAUAGUGGCAAAAGUGGGGGUUGCUAAGGAAAGGGUGGGAUGGGAGUGGGUAAAGAGUUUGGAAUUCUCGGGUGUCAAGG`, the log2 enrichment was 0.292.
The log2 enrichment of `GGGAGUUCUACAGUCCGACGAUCUCCUGUGCUACACAUCGUAUGUACCGAAUCGGCCCCCCGGGCCCCCCGGGCCCCCCGGGGAAAGUAUUAUGUUACGCCGUUCGGAUCUGCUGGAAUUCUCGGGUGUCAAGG` is reported as -1.57.
